Measured values gathered from unrelated publications.
Target: Mitogen-activated protein kinase 9 (MAPK9, Homo sapiens, UniProt P45984)
Sequence of UniProt P45984 (whole entry, looked up): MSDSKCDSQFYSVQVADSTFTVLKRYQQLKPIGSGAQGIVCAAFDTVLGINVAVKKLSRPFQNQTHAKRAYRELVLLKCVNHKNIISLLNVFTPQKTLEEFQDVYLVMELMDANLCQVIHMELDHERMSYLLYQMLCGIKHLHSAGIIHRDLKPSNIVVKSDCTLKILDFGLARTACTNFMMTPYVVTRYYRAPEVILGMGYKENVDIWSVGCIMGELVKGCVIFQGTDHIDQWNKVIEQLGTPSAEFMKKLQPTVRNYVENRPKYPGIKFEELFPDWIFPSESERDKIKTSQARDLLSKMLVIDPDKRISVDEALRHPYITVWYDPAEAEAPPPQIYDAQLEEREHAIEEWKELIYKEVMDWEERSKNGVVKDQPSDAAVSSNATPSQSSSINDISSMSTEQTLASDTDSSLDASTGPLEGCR

`CN(C)[C@H]1C[C@@]23CC[C@@]4(O2)C(=CC[C@]2(C)[C@@H](c5ccc6ccncc6c5)CC[C@H]24)C=C3[C@@H](O)[C@@H]1O` gave an inhibition of -1% (ATP probe labelling, inhibitor, KiNativ profiling; 0.1 µM).
With `CS(C)(=O)=Nc1ccc(-c2ccc(-c3nc4cc(O[C@@H]5CO[C@H]6[C@@H]5OC[C@H]6O)[nH]c4cc3F)cc2)cc1` the inhibition was 5% (enzyme activity, inhibitor; 10 µM).
With `Nc1ccc(/C=C/C(=O)N2CCc3c(oc4c(-c5ccc(F)cc5)cc(-c5ccc(C(=O)N6CCC(F)(F)CC6)cn5)cc34)C2)cn1` the remaining binding was 94% (binding, competition with immobilised ligand; 1 µM).
For `O=C(CN1CN(c2ccccc2)C2(CCN(C(=O)c3cnc4[nH]ncc4c3)CC2)C1=O)NCC(F)(F)F`, the inhibition was less than 50% (inhibitor; concentration not given).
For `O=C1NC(=O)c2c1c1cc(F)c[n+]3c1c1c2c2cc(O)ccc2[n]1[Ru-4]312([N]=C=S)[S+]3CC[S+]1CC[S+]2CC3` (centres unmarked), the remaining activity was 93% (enzyme activity; 100 nM, human enzyme, added: 10 µM ATP; relative to: untreated).
`CCOC(=O)[C@@H]1Cc2c(cc([N+](=O)[O-])cc2[N+](=O)[O-])[C@H](O)[C@]12C(=O)Nc1ccc(Br)cc12` gave a remaining binding of 100% (KINOMEscan; 100 nM; relative to: DMSO control).
With `C[C@H](NCc1ccc(-c2ccc(C(F)(F)F)cc2)cc1)C(N)=O` the inhibition was 4% (cell-free assay, competition with immobilised ligand; 1 µM).
For `CC(C)[C@H]1NC(=O)C[C@H]2/C=C/CCSSC[C@@H](NC1=O)C(=O)N[C@H](Cc1cccc3ccccc13)C(=O)NCC(=O)O2`, the inhibition was -4.1% (enzyme activity, inhibitor; 10 µM).
